# Assay results of several laboratories.
# Protocols differ between the studies behind these lines. Numbers after ± are the reported error.
# ST6GAL1: Beta-galactoside alpha-2,6-sialyltransferase 1 (ST6GAL1, Homo sapiens, UniProt P15907)
# Chain of UniProt P15907 (whole entry, looked up): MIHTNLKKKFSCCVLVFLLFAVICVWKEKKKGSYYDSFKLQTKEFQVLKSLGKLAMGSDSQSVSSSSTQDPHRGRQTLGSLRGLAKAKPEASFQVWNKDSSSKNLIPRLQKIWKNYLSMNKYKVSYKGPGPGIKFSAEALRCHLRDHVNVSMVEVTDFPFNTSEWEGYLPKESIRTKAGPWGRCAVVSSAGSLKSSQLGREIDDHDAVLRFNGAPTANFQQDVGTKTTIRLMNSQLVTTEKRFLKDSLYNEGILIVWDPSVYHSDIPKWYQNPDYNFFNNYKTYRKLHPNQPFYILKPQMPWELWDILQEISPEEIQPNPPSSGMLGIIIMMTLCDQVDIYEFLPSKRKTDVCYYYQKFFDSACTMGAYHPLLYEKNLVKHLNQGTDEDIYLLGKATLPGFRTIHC
# AKR1C3: Aldo-keto reductase family 1 member C3 (AKR1C3, Homo sapiens, UniProt P42330)
# Chain of UniProt P42330 (whole entry, looked up): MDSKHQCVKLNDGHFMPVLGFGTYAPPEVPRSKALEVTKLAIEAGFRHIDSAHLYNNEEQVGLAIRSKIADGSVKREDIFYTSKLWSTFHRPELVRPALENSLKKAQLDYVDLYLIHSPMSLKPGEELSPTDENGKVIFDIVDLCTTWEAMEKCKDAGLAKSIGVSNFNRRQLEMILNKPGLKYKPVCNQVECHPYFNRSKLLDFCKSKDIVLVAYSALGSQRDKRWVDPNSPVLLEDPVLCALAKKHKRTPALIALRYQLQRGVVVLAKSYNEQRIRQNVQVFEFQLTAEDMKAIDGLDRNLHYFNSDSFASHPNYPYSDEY
# Ectonucleoside triphosphate diphosphohydrolase 2: Ectonucleoside triphosphate diphosphohydrolase 2 (Homo sapiens, UniProt Q9Y5L3)
# Chain of UniProt Q9Y5L3 (whole entry, looked up): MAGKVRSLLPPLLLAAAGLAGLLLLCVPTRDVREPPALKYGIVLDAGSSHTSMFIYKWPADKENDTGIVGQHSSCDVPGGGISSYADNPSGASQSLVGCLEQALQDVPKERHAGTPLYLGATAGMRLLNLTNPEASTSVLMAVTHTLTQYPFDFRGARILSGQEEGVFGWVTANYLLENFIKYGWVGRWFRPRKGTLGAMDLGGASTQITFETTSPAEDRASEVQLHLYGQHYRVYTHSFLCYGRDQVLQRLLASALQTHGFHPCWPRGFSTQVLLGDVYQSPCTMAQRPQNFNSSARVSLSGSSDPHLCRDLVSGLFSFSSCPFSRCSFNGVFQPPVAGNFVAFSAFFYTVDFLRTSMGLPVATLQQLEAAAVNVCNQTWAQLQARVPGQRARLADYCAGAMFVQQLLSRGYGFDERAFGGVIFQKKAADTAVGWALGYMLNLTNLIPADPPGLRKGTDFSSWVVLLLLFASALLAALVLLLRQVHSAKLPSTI
# NTRK1: High affinity nerve growth factor receptor (NTRK1, Homo sapiens, UniProt P04629)
# Chain of UniProt P04629 (whole entry, looked up): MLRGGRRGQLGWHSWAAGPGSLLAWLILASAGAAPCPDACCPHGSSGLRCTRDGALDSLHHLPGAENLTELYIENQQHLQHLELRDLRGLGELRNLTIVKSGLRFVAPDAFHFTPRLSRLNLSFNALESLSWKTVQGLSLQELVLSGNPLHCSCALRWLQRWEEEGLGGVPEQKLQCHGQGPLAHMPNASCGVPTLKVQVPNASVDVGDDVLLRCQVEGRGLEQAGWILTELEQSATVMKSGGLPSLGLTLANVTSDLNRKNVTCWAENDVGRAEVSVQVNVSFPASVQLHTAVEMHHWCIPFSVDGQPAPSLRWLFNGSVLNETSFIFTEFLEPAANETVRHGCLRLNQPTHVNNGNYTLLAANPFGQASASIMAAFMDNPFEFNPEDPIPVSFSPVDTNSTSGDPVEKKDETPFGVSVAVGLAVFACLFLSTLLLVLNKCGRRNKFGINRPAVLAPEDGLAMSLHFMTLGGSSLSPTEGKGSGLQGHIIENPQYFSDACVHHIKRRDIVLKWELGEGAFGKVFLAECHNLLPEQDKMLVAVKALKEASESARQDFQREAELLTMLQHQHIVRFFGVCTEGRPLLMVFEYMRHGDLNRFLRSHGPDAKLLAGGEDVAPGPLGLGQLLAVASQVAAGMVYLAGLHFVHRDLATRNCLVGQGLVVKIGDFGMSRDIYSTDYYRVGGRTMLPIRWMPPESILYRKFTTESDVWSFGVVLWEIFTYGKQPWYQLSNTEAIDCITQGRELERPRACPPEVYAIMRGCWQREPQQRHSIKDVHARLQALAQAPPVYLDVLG
# DNMT3A catalytic domain: DNA (cytosine-5)-methyltransferase 3A, catalytic domain (DNMT3A, Homo sapiens, UniProt Q9Y6K1)
# CDK2 with cyclin A2: Cyclin-dependent kinase 2, with cyclin A2 (CDK2, Homo sapiens, UniProt P24941)
# Genome polyprotein protease: Genome polyprotein, protease (Dengue virus type 2, UniProt P14340)
# MAPT 2N3R isoform: Microtubule-associated protein tau, 2N3R isoform (MAPT, Homo sapiens, UniProt P10636)
# SIRT6: NAD-dependent protein deacylase sirtuin-6 (SIRT6, Homo sapiens, UniProt Q8N6T7)
# Chain of UniProt Q8N6T7 (whole entry, looked up): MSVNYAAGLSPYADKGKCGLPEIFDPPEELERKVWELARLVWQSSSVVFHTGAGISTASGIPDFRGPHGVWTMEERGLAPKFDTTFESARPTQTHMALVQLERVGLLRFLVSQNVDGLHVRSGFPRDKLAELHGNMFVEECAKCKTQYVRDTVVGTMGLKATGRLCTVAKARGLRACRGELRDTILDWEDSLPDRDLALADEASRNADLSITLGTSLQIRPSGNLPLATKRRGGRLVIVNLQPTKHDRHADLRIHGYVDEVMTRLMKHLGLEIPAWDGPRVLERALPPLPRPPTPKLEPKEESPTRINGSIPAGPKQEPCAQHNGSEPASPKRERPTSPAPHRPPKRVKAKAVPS
# Chain of UniProt Q96RI1 (whole entry, looked up): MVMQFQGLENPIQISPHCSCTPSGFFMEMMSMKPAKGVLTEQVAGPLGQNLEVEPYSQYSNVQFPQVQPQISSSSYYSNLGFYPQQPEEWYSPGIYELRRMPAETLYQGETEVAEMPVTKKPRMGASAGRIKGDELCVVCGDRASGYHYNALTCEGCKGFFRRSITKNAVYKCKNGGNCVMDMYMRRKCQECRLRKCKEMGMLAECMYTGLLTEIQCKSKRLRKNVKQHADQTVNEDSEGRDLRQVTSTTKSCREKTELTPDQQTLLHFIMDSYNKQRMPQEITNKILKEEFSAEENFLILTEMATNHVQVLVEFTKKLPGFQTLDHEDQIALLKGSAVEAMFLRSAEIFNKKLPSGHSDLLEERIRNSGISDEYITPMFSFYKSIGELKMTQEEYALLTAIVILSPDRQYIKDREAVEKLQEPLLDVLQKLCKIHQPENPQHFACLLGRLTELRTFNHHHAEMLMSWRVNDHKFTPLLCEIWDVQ
# Chain of UniProt Q8VDG7 (whole entry, looked up): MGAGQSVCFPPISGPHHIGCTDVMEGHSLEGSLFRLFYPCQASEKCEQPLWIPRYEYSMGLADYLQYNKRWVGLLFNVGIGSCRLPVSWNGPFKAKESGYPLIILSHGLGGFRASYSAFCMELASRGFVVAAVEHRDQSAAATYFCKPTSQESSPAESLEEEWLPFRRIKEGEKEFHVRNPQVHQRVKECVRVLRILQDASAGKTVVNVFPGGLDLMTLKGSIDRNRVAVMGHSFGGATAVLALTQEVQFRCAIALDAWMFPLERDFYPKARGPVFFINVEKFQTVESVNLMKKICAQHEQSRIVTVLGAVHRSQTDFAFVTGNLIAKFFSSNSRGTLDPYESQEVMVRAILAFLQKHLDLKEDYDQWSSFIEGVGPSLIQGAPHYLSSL
# Chain of UniProt P35520 (whole entry, looked up): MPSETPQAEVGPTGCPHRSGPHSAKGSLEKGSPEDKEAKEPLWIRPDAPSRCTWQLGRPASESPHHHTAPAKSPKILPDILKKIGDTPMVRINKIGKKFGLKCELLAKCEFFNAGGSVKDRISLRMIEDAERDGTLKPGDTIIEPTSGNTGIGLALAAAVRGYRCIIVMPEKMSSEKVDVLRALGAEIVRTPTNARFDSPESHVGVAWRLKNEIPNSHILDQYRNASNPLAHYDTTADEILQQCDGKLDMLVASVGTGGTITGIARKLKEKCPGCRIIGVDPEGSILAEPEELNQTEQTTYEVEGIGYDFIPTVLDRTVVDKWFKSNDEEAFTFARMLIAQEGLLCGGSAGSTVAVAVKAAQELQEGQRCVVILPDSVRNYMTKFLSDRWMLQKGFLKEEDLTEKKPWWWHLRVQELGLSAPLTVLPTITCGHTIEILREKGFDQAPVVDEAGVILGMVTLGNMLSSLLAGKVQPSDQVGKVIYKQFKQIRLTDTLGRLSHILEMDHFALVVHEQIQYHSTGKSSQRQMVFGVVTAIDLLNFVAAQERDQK
# Chain of UniProt P00760 (whole entry, looked up): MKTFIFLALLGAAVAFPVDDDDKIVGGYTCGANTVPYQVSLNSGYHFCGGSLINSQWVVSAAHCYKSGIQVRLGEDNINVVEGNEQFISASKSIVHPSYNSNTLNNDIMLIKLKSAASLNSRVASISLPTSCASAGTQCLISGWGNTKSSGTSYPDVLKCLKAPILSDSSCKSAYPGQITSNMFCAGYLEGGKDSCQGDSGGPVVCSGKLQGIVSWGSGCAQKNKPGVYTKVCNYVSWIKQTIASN
Structure (SMILES),tested on,assay,system,conditions,quantity,result
COc1ccc2[nH]cc(C(C[C@@H](NC(=O)CC[C@@H](C)[C@H]3CC[C@H]4[C@@H]5CC[C@@H]6C[C@H](O)CC[C@]6(C)[C@H]5CC[C@]34C)C(=O)O)c3c[nH]c4ccc(OC)cc34)c2c1,ST6GAL1,"enzyme activity, inhibitor, UPLC",,25 µM,inhibition,84%
COc1ccc(-c2cc(C(F)(F)F)nc(S(=O)(=O)NCC(=O)Nc3ccc(C)cc3)c2)cc1,"WRN (Homo sapiens, UniProt Q14191)","DNA unwinding, TAMRA dequenching",,concentration not given,inhibition,inactive
NC(=O)c1ccc(C(=O)NOCc2ccc(Sc3cccc(Cl)c3)c(C(F)(F)F)c2)cc1,"HDAC1 (Homo sapiens, UniProt Q13547)","cell-free assay, inhibitor",,100 µM,inhibition,17.1%
CN(C1COC1)C(C)(C)/C=C(\C#N)C(=O)N1CCC[C@H]1Cn1nc(-c2ccc(Oc3ccccc3)cc2F)c2c(N)ncnc21,"BMX (Homo sapiens, UniProt P51813)",,,"1 µM, mean",inhibition,> 90%
COc1cc2c(cc1Br)[C@H]1CC[C@@]3(C)C(=O)CC[C@H]3[C@@H]1CC2,AKR1C3,"enzyme activity, inhibitor, absorbance",,"10 µM, pH 9",inhibition,13.6%
COC(=O)[C@@H](CC(c1c[nH]c2ccccc12)c1c[nH]c2ccccc12)NC(=O)CC[C@@H](C)[C@H]1CC[C@H]2[C@@H]3CC[C@@H]4C[C@H](OC(C)=O)CC[C@]4(C)[C@H]3CC[C@]12C,ST6GAL1,"enzyme activity, inhibitor, UPLC",,25 µM,inhibition,61%
CC(C)CCC[C@@H](C)[C@H]1CCC([C@@H]2CC[C@H]3C[C@H](O)CC[C@]3(C)[C@@H]2O)[C@]1(C)CC(=O)O (stereo partly drawn),"Bile acid receptor (NR1H4, Homo sapiens, UniProt Q96RI1)","reporter gene, antagonist, luciferase",HEK-293T,10 µM,inhibition,100%
C[C@H](NC(=O)CNC(=O)[C@@H]1CSSC[C@H](NC(=O)[C@H](C)NC(=O)CN)C(=O)N[C@@H](CCCNC(=N)N)C(=O)N[C@@H](CCCNC(=N)N)C(=O)N[C@@H](CCC(=O)O)C(=O)N[C@@H]([C@@H](C)O)C(=O)N[C@@H](C)C(=O)N[C@@H](Cc2c[nH]c3ccccc23)C(=O)N[C@@H](C)C(=O)N1)C(=O)O,"Integrin alpha-V/beta-3 (Homo sapiens, UniProt P05106+P06756)",cell attachment to vitronectin,IMR-90,concentration not given,inhibition,no inhibition
C[C@@]12CC[C@@H]3c4cc(Br)c(O)cc4CC[C@H]3[C@@H]1CCC2=O,AKR1C3,"enzyme activity, inhibitor, absorbance",,"10 µM, pH 9",inhibition,62.6%
N[C@H]1CC[C@H](Nc2nccc(-c3cccnc3Oc3ccc(NS(=O)(=O)CC(F)(F)F)c(F)c3)n2)CC1,"ERN1 (Homo sapiens, UniProt O75460)","RNase activity, inhibitor",,"concentration not given, at quantitative kinase inhibition, together with: XBP1 mini-substrate",inhibition,~80%
C[C@@]12CC[C@@H]3c4ccc(O)c(Br)c4CC[C@H]3[C@@H]1CCC2=O,AKR1C3,"enzyme activity, inhibitor, absorbance",,"10 µM, pH 9",inhibition,25%
O=C(c1cccc(S(=O)(=O)N2CCOCC2)c1)N1CCOCC1,Ectonucleoside triphosphate diphosphohydrolase 2,"enzyme activity, inhibitor, absorbance",,100 µM,inhibition,25%
NCc1ccc(NC(=O)c2ccc3ccccc3c2O)cc1,"Procathepsin L (CTSL, Homo sapiens, UniProt P07711)","enzyme activity, inhibitor",,10 µM,inhibition,< 20%
O=C(Nc1cccc(C(=O)Nc2ccc3[nH]ncc3c2)c1)Nc1cc(C(F)(F)F)ccc1F,NTRK1,"enzyme activity, inhibitor, FRET",,1 µM,inhibition,80.3%
C[C@@]12CC[C@@H]3c4cc(Cl)c(O)cc4CC[C@H]3[C@@H]1CCC2=O,AKR1C3,"enzyme activity, inhibitor, absorbance",,"100 µM, pH 9",inhibition,72.3%
C[C@H](CCC(=O)N[C@H](CC(c1c[nH]c2ccc(N=[N+]=[N-])cc12)c1c[nH]c2ccc(N=[N+]=[N-])cc12)C(=O)O)[C@H]1CC[C@H]2[C@@H]3CC[C@@H]4C[C@H](O)CC[C@]4(C)[C@H]3CC[C@]12C (stereo partly drawn),ST6GAL1,"enzyme activity, inhibitor, UPLC",,25 µM,inhibition,89%
Cc1cc(Nc2ccc(NC(=O)c3ccc(NC(=O)c4cccnc4O)cc3)cc2)nc(N)n1,DNMT3A catalytic domain,"enzyme activity, inhibitor, restriction-based fluorescence",,20 µM,inhibition,0%
C[C@]12CC[C@@H]3c4cc(Br)c(O)c(Br)c4CC[C@H]3[C@@H]1CCC2=O,AKR1C3,"enzyme activity, inhibitor, absorbance",,"100 µM, pH 9",inhibition,58.3%
COc1cc(C(=O)NC2CCC(N3CCN(CC4CCC5(CCCC5)C4)CC3)CC2)c(F)cc1Nc1ncc2c(n1)N(C1CCCC1(F)F)CC(F)(F)C(=O)N2C (stereo not drawn),"PDGFRB (Homo sapiens, UniProt P09619)","cell-free assay, TR-FRET",,10 µM,inhibition,5.71%
Cc1ccc(C(C)C)cc1.Cc1ncc(CO)c(C=NNC2=Nc3ccccc3-c3[nH]c4ccc(Br)cc4c3C2)c1O.[Cl-].[Cl][Ru+],"Cyclin-dependent kinase 2, with cyclin E (CDK2, Homo sapiens, UniProt P24941)","enzyme activity, inhibitor, radiometric",,10 µM,inhibition,37%
CC(C)Cn1cc(-c2ccnc(Nc3ccc(N4CCN(CCCCCCC(=O)NO)CC4)cc3)n2)nn1,CDK2 with cyclin A2,"enzyme activity, inhibitor, TR-FRET",,50 nM,inhibition,-11.4%
Oc1c(C(Nc2nccs2)c2ccccc2OCc2ccccc2)ccc2cccnc12 (stereo not drawn),Genome polyprotein protease,"enzyme activity, inhibitor, fluorescence",,25 µM,inhibition,83.1%
O=C(N1CCCC1)n1cc(-c2ccc(-c3ccccc3)cc2)nn1,"Platelet-activating factor acetylhydrolase 2, cytoplasmic (Mus musculus, UniProt Q8VDG7)","enzyme activity, competitive ABPP-SILAC",mouse T cells,"3 nM, 4 h",inhibition,> 97%
CN(C)c1ccc(NC(=S)N(C)c2ccccc2)cc1,MAPT 2N3R isoform,"tau fibril formation, ThT fluorescence",,"100 µM, tau at 10 µM",inhibition,96%
Cc1ccc(C(C)C)cc1NC(=O)COC(=O)/C=C/c1ccc(O)cc1O,"Tyrosinase (TYR, Homo sapiens, UniProt P14679)","enzyme activity, inhibitor",,50 µg/mL,inhibition,91.9%
NOCC(=O)O,"CBS (Homo sapiens, UniProt P35520)","enzyme activity, inhibitor",,10 µM,inhibition,49%
NC(=O)c1cn(CC(=O)NC[C@H](NC(=O)CCc2nc(-c3cccnc3)no2)C(=O)Nc2cccc(C(=O)NO)c2)c(=O)[nH]c1=O,SIRT6,demyristoylation,,10 µM,inhibition,1%
Oc1c(C(Nc2nccs2)c2cccc(OCc3ccccc3)c2)ccc2cccnc12 (stereo not drawn),Genome polyprotein protease,"enzyme activity, inhibitor, fluorescence",,10 µM,inhibition,78.5%
COc1cc(-c2oc3cc(O)cc(O)c3c(=O)c2OC)ccc1O,"MAL12 (Saccharomyces cerevisiae S288c, UniProt P53341)","enzyme activity, inhibitor, absorbance",,100 µM,inhibition,96.8%
CC[C@H](C)[C@H](NC(=O)[C@@H](NC(=O)[C@H](CCCCN)NC(=O)[C@@H](NC(=O)[C@@H]1CCCN1[C@@H]1CN(C(=O)[C@@H](NC(=O)[C@@H](NC(=O)[C@@H](NC(=O)[C@@H](NC(=O)[C@@H](NC(=O)[C@@H](N)CCCCN)C(C)C)C(C)C)C(C)C)[C@@H](C)CC)[C@@H](C)O)CC[C@H]1NS(=O)(=O)c1ccc(C)cc1)[C@@H](C)O)C(C)C)C(=O)N[C@@H](CC(C)C)C(=O)N[C@@H](Cc1c[nH]cn1)C(N)=O,"Microtubule-associated protein tau, 2N4R isoform (MAPT, Homo sapiens, UniProt P10636, del597-597)","tau ΔK280 aggregation, thioflavin T fluorescence",,"concentration not given, compound to tau ratios 5/1 and 1/1",inhibition,inhibited
CCOC(=O)c1cccc(NC(=O)[C@H](CNC(=O)Cn2cc(C(N)=O)c(=O)[nH]c2=O)NC(=O)CCc2nc(-c3cccnc3)no2)c1,SIRT6,demyristoylation,,10 µM,inhibition,29%
C[C@H](CCC(=O)N[C@H](CC(c1c[nH]c2ccc(Cl)cc12)c1c[nH]c2ccc(Cl)cc12)C(=O)O)[C@H]1CC[C@H]2[C@@H]3CC[C@@H]4C[C@H](O)CC[C@]4(C)[C@H]3CC[C@]12C,"Sialyltransferase ST3Gal-I (Rattus norvegicus, UniProt Q6H8N0)","enzyme activity, inhibitor, UPLC",,500 µM,inhibition,0%
O=C(N[C@@H](CC1CCCCC1)C(=O)N[C@@H](C[C@H]1CCNC1=O)C(=O)C(=O)NC1CC1)OCc1cccc(Cl)c1,"Serine protease 1 (PRSS1, Bos taurus, UniProt P00760)","enzyme activity, inhibitor",,"125 µM, inhibitor/enzyme ratio 250",inhibition,0%
C[C@@]12CC[C@@H]3c4cc(I)c(O)c(I)c4CC[C@H]3[C@@H]1CCC2=O,AKR1C3,"enzyme activity, inhibitor, absorbance",,"10 µM, pH 9",inhibition,2.6%
O=C(O)c1cc(S(=O)(=O)N2CCOCC2)ccc1Cl,Ectonucleoside triphosphate diphosphohydrolase 2,"enzyme activity, inhibitor, absorbance",,100 µM,inhibition,15%
COc1ccc2c(c1Br)CC[C@@H]1[C@@H]2CC[C@@]2(C)C(=O)CC[C@@H]12,AKR1C3,"enzyme activity, inhibitor, absorbance",,"100 µM, pH 9",inhibition,39.7%
Oc1c(C(Nc2nc3ccccc3s2)c2ccccc2OCc2ccccc2)ccc2cccnc12 (stereo not drawn),Genome polyprotein protease,"enzyme activity, inhibitor, fluorescence",,25 µM,inhibition,85.5%
NS(=O)(=O)Nc1ncnc(OCCOc2ncc(Br)cn2)c1-c1ccc(Br)cc1,,metabolite formation,"male Beagle dog, liver microsomes",5 mg/kg daily for 4 weeks,Vmax,517 ± 15 pmol/min/mg
Cc1cc(Nc2ccc(NC(=O)c3ccc(NC(=O)c4ccncc4)cc3)cc2)nc(N)n1,DNMT3A catalytic domain,"enzyme activity, inhibitor",,10 µM,inhibition,5%
CNC(=O)c1ccccc1Oc1nc(Nc2cc(OC)c(OC)c(OC)c2)ncc1Br,NTRK1,"enzyme activity, inhibitor",,1 µM,inhibition,30 to 50%
C[C@@]12CC[C@@H]3c4cc(I)c(O)cc4CC[C@H]3[C@@H]1CCC2=O,AKR1C3,"enzyme activity, inhibitor, absorbance",,"10 µM, pH 9",inhibition,33.8%
CC(C)Cn1cc(-c2ccnc(Nc3ccc(C(=O)Nc4ccccc4N)cc3)n2)nn1,CDK2 with cyclin A2,"enzyme activity, inhibitor, TR-FRET",,50 nM,inhibition,5.2%
O=C(/C=C/c1ccccc1)Oc1ccc2c(c1)O/C(=C\C=C\c1ccccc1)C2=O,"PIK3C3 (Homo sapiens, UniProt Q8NEB9)","enzyme activity, inhibitor, ADP detection",,0.1 µM,inhibition,79.6%
S=C(Nc1ccc(Cl)cc1)Nc1cccc2[nH]ccc12,MAPT 2N3R isoform,"tau fibril formation, ThT fluorescence",,"100 µM, tau at 10 µM",inhibition,79%
CC(C)Cn1cc(-c2ccnc(Nc3ccc(OCCCCCCC(=O)NO)cc3)n2)nn1,CDK2 with cyclin A2,"enzyme activity, inhibitor, TR-FRET",,50 nM,inhibition,0.53%

# A few entries again:
Structure (SMILES),tested on,assay,system,conditions,quantity,result
O=C(c1cccc(S(=O)(=O)N2CCOCC2)c1)N1CCOCC1,Ectonucleoside triphosphate diphosphohydrolase 2,"enzyme activity, inhibitor, absorbance",,100 µM,inhibition,25%
NCc1ccc(NC(=O)c2ccc3ccccc3c2O)cc1,"Procathepsin L (CTSL, Homo sapiens, UniProt P07711)","enzyme activity, inhibitor",,10 µM,inhibition,< 20%
O=C(Nc1cccc(C(=O)Nc2ccc3[nH]ncc3c2)c1)Nc1cc(C(F)(F)F)ccc1F,NTRK1,"enzyme activity, inhibitor, FRET",,1 µM,inhibition,80.3%
